Experimental data of several laboratories.
Each line is one published result; not all experiments were run side by side. “And” joins repeats or separate records; there may be more than shown. ± gives the spread as reported.
UniProt D0VWV4, sequence (whole entry, looked up): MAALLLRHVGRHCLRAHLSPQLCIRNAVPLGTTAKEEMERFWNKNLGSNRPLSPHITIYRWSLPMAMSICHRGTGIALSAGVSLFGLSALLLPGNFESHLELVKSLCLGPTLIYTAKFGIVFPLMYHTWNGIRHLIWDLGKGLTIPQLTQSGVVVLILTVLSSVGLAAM
UniProt A5GZW8, sequence (whole entry, looked up): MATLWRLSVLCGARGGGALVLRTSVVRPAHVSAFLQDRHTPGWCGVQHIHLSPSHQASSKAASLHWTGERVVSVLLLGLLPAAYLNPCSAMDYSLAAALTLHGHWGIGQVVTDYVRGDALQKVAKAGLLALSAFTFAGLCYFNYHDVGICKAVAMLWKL
UniProt Q007T0, sequence (whole entry, looked up): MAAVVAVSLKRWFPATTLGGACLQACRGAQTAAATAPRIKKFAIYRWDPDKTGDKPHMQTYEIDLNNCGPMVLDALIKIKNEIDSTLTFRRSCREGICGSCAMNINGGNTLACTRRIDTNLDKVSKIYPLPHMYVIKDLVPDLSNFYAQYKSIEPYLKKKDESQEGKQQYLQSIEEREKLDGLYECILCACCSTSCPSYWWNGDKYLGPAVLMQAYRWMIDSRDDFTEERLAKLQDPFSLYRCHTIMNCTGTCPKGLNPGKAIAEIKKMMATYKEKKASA
UniProt Q9H3N8, sequence (whole entry, looked up): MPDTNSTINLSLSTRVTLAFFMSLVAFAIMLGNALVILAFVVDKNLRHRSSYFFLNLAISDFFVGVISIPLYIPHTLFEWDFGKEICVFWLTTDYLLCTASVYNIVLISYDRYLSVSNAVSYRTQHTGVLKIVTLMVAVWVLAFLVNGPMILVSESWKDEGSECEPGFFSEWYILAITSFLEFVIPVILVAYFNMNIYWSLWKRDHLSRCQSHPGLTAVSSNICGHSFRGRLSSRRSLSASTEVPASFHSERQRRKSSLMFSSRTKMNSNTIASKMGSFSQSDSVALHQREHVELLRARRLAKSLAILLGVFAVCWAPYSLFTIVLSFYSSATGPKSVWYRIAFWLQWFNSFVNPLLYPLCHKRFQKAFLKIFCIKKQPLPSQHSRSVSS
UniProt Q01827, sequence (whole entry, looked up): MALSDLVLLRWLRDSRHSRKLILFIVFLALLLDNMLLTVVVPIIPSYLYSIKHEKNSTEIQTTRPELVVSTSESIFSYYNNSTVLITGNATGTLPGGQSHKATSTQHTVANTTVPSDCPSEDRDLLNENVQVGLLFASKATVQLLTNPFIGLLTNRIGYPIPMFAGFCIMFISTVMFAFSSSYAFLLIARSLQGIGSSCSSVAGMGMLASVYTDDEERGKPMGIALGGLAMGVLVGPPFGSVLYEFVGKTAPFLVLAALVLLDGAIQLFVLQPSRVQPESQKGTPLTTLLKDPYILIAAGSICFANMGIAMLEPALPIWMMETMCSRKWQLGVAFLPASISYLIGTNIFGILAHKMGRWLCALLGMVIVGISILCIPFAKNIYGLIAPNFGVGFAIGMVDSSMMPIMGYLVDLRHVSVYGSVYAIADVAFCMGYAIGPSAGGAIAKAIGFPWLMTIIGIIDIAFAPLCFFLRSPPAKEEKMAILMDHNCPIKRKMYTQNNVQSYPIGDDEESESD
UniProt Q01718, sequence (whole entry, looked up): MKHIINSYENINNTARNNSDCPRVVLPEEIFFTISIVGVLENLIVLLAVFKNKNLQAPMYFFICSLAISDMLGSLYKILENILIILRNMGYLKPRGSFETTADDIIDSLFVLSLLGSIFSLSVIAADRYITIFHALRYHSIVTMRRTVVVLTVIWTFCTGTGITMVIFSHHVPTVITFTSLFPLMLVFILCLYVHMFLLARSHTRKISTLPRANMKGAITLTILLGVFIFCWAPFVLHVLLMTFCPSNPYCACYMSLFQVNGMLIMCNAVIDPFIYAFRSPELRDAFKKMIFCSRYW
UniProt P25929, sequence (whole entry, looked up): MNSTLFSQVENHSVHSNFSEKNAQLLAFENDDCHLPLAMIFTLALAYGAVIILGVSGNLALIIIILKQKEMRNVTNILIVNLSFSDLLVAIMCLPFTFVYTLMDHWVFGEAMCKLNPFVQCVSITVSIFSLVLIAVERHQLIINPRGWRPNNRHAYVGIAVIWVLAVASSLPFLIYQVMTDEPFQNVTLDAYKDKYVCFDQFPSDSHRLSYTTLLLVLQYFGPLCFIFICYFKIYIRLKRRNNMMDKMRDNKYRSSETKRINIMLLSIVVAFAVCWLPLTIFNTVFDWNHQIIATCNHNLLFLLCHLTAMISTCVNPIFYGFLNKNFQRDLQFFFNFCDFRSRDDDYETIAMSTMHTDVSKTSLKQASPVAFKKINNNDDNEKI
UniProt P39748, sequence (whole entry, looked up): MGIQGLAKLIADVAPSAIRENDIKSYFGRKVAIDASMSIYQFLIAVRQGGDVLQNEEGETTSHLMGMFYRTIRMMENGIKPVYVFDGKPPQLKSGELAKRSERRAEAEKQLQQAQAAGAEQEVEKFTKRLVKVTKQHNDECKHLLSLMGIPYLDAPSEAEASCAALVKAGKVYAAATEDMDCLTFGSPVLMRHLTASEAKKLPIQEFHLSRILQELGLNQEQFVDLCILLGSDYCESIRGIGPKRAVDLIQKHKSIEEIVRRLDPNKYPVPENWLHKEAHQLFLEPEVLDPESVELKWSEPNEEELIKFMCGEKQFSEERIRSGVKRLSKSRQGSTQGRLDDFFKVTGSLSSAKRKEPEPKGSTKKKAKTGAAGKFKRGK
UniProt O00222, sequence (whole entry, looked up): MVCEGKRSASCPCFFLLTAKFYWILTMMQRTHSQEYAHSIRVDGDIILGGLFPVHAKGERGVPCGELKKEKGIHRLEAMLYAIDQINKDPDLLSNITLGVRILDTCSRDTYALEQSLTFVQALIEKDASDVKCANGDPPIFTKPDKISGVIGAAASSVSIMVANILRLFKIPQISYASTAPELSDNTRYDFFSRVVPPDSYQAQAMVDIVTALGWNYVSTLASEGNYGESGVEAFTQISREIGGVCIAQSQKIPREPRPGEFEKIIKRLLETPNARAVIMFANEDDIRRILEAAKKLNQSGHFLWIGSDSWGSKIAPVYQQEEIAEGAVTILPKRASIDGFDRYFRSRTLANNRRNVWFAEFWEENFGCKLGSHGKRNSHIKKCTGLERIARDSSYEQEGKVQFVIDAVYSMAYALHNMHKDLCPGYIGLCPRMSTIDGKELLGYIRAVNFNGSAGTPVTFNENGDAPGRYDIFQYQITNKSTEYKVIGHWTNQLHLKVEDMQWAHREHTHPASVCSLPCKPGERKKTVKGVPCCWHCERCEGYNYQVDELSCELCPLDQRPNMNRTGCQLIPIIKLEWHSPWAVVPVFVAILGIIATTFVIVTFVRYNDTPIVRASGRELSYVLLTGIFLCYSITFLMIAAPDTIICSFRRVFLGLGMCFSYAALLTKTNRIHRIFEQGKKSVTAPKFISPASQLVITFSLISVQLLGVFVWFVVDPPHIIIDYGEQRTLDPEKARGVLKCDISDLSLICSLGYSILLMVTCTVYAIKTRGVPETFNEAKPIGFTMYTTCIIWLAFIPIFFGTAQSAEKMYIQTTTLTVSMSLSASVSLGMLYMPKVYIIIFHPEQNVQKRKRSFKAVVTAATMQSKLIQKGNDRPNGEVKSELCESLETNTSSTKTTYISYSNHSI
UniProt P30542, sequence (whole entry, looked up): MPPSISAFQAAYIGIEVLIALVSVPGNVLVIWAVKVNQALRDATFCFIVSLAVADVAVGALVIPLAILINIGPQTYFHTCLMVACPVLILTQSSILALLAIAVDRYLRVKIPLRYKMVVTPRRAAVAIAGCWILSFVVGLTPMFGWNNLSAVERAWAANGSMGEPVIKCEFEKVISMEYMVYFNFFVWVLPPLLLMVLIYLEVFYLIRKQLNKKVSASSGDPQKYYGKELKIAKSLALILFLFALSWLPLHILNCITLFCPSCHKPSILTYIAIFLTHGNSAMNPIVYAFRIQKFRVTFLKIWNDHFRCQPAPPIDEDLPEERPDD
UniProt P00942, sequence (whole entry, unmodified, looked up): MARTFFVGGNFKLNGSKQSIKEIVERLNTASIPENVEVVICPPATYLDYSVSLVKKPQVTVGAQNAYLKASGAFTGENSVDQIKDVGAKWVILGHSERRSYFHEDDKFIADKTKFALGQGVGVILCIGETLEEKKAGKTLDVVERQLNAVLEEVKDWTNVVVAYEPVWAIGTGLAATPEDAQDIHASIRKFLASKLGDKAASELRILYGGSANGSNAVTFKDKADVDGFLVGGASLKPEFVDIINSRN
UniProt Q00526, sequence (whole entry, looked up): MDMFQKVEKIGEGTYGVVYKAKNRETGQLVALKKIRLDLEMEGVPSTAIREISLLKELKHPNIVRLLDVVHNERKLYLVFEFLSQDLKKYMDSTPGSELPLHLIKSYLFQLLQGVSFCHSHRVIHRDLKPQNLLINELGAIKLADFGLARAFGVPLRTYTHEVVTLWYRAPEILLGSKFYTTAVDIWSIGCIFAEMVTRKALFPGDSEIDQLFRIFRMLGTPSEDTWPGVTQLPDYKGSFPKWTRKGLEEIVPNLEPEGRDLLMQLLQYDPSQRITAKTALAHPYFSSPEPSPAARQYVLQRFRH
UniProt P53680, sequence (whole entry, looked up): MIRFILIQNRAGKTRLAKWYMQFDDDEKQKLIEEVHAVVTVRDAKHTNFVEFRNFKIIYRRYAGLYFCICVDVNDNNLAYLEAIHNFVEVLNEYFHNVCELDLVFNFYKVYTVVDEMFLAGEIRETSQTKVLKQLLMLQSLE
UniProt P07026, sequence (whole entry, looked up): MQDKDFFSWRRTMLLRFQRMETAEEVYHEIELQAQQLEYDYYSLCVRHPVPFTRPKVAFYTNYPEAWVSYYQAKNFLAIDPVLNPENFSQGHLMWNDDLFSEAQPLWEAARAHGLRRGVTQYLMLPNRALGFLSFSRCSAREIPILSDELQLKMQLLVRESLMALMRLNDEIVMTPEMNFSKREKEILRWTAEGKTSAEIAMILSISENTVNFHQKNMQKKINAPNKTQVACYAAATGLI
UniProt Q9X6J6, sequence (whole entry, unmodified, looked up): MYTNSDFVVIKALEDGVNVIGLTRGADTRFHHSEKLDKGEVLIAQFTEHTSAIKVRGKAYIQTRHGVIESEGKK

Under “median protein ratio”, `O=C(c1ccc(Cl)cc1)N1CCN2C(=O)N(OC(=O)N3CCOc4ccccc43)C(=O)C2C1` (centres unmarked) is recorded as 1.05 (Dipeptidyl peptidase 9 (DPP9, Homo sapiens, UniProt Q86TI2); MS-based ABPP; SW-620 conditioned medium; 10 µM, 1 h, 37 °C; baseline: compound over DMSO, lower = more inhibition).
The substrate conversion of `O=C(O)c1cc[c]([Sb](=[O])([OH])[OH])cc1[N+](=O)[O-]` is reported as 7% (Flap endonuclease 1 (Homo sapiens, UniProt P39748); gel radiotracer; 100 nM, 5 min, room temperature, with: single-flap substrate 50 nM).
For `CN1CCN(c2cc(-c3ccncc3)c(-c3ccc4ccccc4c3)nn2)CC1`, the activation was 7.4% (Adrenocorticotropic hormone receptor (MC2R, Homo sapiens, UniProt Q01718); agonist, FLIPR; 12.5 µM).
`COc1ccc(N2C(=O)N(c3c(C)cccc3Cl)Cc3cnc(Nc4ccc(C5CCN(C)CC5)cc4OC)nc32)nc1` has an inhibition of 50% (Serine/threonine-protein kinase MARK1 (MARK1, Homo sapiens, UniProt Q9P0L2); kinase activity; 0.5 µM).
`Nc1ncc(-c2nc(N3CCOCC3)nc(N3CCOCC3)n2)c(C(F)F)n1` has a remaining binding of 42% (Serine/threonine-protein kinase B-raf (BRAF, Homo sapiens, UniProt P15056, V600E); KINOMEscan; 10 µM).
With `N[C@@H](Cc1c[nH]c2ccccc12)C(=O)O` the binding stoichiometry was 12 ± 0.02 (Transcription attenuation protein MtrB, Δ71 truncation (mtrB, Geobacillus stearothermophilus, UniProt Q9X6J6); isothermal titration calorimetry; concentration not given, 25 °C, one-site model).
With `C[C@H]1CN(c2n[nH]c3nc(N[C@H]4CC[C@H](NS(=O)(=O)CCC(F)(F)F)CC4)ncc23)CCO1` the remaining binding was 1.08 (AP-2 complex subunit sigma (Homo sapiens, UniProt P53680); Kinobeads competition, measured: AP2S1; 0.032 µM, unit not given; baseline: vehicle).
For `CN(CC(=O)O)C(=N)NP(=O)(O)O`, the kcat was 5 ± 1 s⁻¹ (Creatine kinase U-type, mitochondrial (CKMT1A, Homo sapiens, UniProt P12532, H99K); substrate, Kinase-Glo luminescence; pH 7.0, reverse reaction, H61K mutant, with: second substrate in excess).
`NC(CC1(C(=O)O)CC2OC(CO)C(O)C(O)C2O1)C(=O)O` (centres unmarked) gave an affinity reduction of ~8 fold (Glutamate receptor ionotropic, kainate 1 (Rattus norvegicus, UniProt P22756, del402-416); [3H]kainate displacement; concentration not given; baseline: parent compound Ki).
`CC(C)(COP(=O)(O)O)[C@@H](O)C(=O)NCCCOP(=O)(O)OC[C@H]1O[C@@H](n2ccc(N)nc2=O)[C@H](O)[C@@H]1O` has a selectivity ratio of 145 to 1000 fold (phosphopantothenoylcysteine synthetase; enzyme activity; baseline: IC50 human over bacterial).
Under “turnover number increase”, `CC=O` is recorded as 1.6 fold (ADH1 (Saccharomyces cerevisiae, UniProt P00330, H49Q); reduction, substrate; pH 7.3; baseline: wild type).
The Ki ratio of `O=C(O)COP(=O)(O)O` is reported as 8.1 (TPI1 (Saccharomyces cerevisiae, UniProt P00942, Y208T); enzyme activity, competitive inhibitor, GPDH/NADH-coupled; pH 6.4, 25 °C, ionic strength 0.1 NaCl, with: glyceraldehyde 3-phosphate substrate; baseline: mutant over wild type).
`O=C(NNC(=O)c1csnn1)c1ccc(Cl)cc1` gave a remaining activity of 60.3% (Acetyl-CoA synthetase (Cryptococcus neoformans, UniProt J9VFT1); 1.56 µM).
For `CSCC[C@H](N)C(=O)N[C@@H](C)C(=O)N[C@@H](C)C(=O)N[C@H](C(=O)N[C@@H](C)C(=O)NCC(=O)N[C@@H](CC(C)C)C(=O)N[C@@H](Cc1ccc(O)cc1)C(=O)NCC(=O)N[C@@H](CC(C)C)C(=O)NCC(=O)N[C@@H](CCC(=O)O)C(=O)N[C@@H](CC(=O)O)C(=O)N[C@@H](CCCNC(=N)N)C(=O)N[C@@H](CCC(N)=O)C(=O)N[C@@H](Cc1c[nH]cn1)C(=O)N[C@@H](CCCNC(=N)N)C(=O)N[C@@H](CCCCN)C(=O)N[C@@H](CCCCN)C(=O)N[C@@H](CCC(N)=O)C(N)=O)C(C)C`, the Hill coefficient was 0.94 (Sh, DEL6-46 (Drosophila melanogaster, UniProt P08510); ion current, blocker, inside-out patch clamp; +90 mV).
For `CCN(CC)CCCC[C@H](NC(=O)[C@H](CC(C)C)NC(=O)[C@H](C)NC(=O)[C@H](Cc1ccccc1)NC(=O)c1ccc(C(C)(C)C)cc1)C(=O)N[C@@H](CO)C(=O)OC`, the specific binding was 120% (Neuropeptide Y receptor type 1 (NPY1R, Homo sapiens, UniProt P25929); radioligand binding; 10 µM).
With `CN(C(=O)n1cnc(-c2ccc[n+]([O-])c2)c1)C1CCCCC1` the inhibition was 8% (Adenosine receptor A1 (ADORA1, Homo sapiens, UniProt P30542); radioligand binding; 10 µM, with: [3H]DPCPX).
For `CCOC(=O)CC(SP(=O)(OC)OC)C(=O)OCC` (centres unmarked), the remaining activity was 4.85% (uncharacterized protein (Anopheles coluzzii, UniProt A0A6E8VQK1); enzyme activity, inhibitor; Sf9 cell homogenate; 2.294 µM, 0.1667 h, with: α-naphthyl acetate substrate; baseline: no inhibitor).
With `C=C(CN(C(=O)c1c(C(F)F)nn(C)c1F)C1CC1)c1ccc(Cl)cc1Cl` the reaction velocity was 0.00206 µM/s and 0.00207 µM/s (SDHD/SDHC/SDHB (Sus scrofa, UniProt A5GZW8+D0VWV4+Q007T0); enzyme activity, inhibitor, DCIP reduction; pig; 0.1 µM, with: DCIP 5 µM).
`COc1ccccc1CCN1CCN(CCc2ccccc2)CC1` has a maximal inhibition of 100% (Synaptic vesicular amine transporter (Slc18a2, Rattus norvegicus, UniProt Q01827); [3H]dopamine uptake, inhibitor; rat striatal vesicles).
`O=C(Nc1cnccc1Cl)N1CCN(Cc2ccc3c(c2)OC(F)(F)O3)CC1`: “inhibition of binding” 5% (Histamine H4 receptor (HRH4, Homo sapiens, UniProt Q9H3N8); radioligand binding; 10 µM, with: [3H]histamine).
`CC[C@@H](C)[C@@H](NC(=O)[C@@H](Cc1ccc(O)cc1)NC(=O)[C@H]1CCCN1C(=O)[C@@H](CCCNC(=N)N)NC(=O)[C@H](N)Cc1c[nH]cn1)C(=O)N[C@H](C)C(=O)N[C@H](Cc1c[nH]cn1)C(=O)N[C@H](CCCNC(=N)N)C(=O)N[C@H](CCCCNC(=O)c1cccc(S(=O)(=O)F)c1)C(=O)N[C@H](Cc1ccc(O)cc1)C(=O)N[C@H](CO)C(=O)N[C@H](Cc1ccccc1)C(N)=O`: “surface TFRC expression” 0.994 (Transferrin receptor protein 1 (Tfrc, Mus musculus, UniProt Q62351); flow cytometry; RAW264.7; 48 h, pH 6, replicate 3, unit not given; baseline: 0 h).
For `COc1cc(Nc2ncc(F)c(Nc3ccc4c(n3)NC(=O)C(C)(C)O4)n2)cc(OC)c1OC`, the inhibition was 0% (Cyclin-dependent kinase 11A (CDK11A, Homo sapiens, UniProt Q9UQ88); binding, KINOMEscan; 10 µM, CDC2L2 kinase).
For `[2H]c1c([2H])c([C@]2([2H])CCCN2C(=O)C(C)(C)Oc2ccc3cn[nH]c3c2)c([2H])c([2H])c1C([2H])([2H])[2H]`, the remaining binding was 78% (Cyclin-dependent kinase 3 (CDK3, Homo sapiens, UniProt Q00526); KINOMEscan; 1 µM; baseline: DMSO control).
For `CCCCCCCCCC(=O)N[C@H]1CCOC1=O`, the Emax was 78.8% (Regulatory protein SdiA (sdiA, Escherichia coli, UniProt P07026)).
For `COc1cc(F)cc2c(N3CCN4c5ccccc5NCC4C3)c(C#N)nnc12` (centres unmarked), the efficacy was 68% (Metabotropic glutamate receptor 8 (GRM8, Homo sapiens, UniProt O00222); positive allosteric modulator; with: glutamate; baseline: glutamate maximum).
`COc1cc(Br)cc(Br)c1Oc1cc(Br)cc(Br)c1O` has a Vmax/Km of 8.4 mL/min/mg (Sulfotransferase 1E1 (SULT1E1, Homo sapiens, UniProt P49888); sulfonation, substrate).

For quick reference, copied from above:
`O=C(NNC(=O)c1csnn1)c1ccc(Cl)cc1` gave a remaining activity of 60.3% (Acetyl-CoA synthetase (Cryptococcus neoformans, UniProt J9VFT1); 1.56 µM).
For `CSCC[C@H](N)C(=O)N[C@@H](C)C(=O)N[C@@H](C)C(=O)N[C@H](C(=O)N[C@@H](C)C(=O)NCC(=O)N[C@@H](CC(C)C)C(=O)N[C@@H](Cc1ccc(O)cc1)C(=O)NCC(=O)N[C@@H](CC(C)C)C(=O)NCC(=O)N[C@@H](CCC(=O)O)C(=O)N[C@@H](CC(=O)O)C(=O)N[C@@H](CCCNC(=N)N)C(=O)N[C@@H](CCC(N)=O)C(=O)N[C@@H](Cc1c[nH]cn1)C(=O)N[C@@H](CCCNC(=N)N)C(=O)N[C@@H](CCCCN)C(=O)N[C@@H](CCCCN)C(=O)N[C@@H](CCC(N)=O)C(N)=O)C(C)C`, the Hill coefficient was 0.94 (Sh, DEL6-46 (Drosophila melanogaster, UniProt P08510); ion current, blocker, inside-out patch clamp; +90 mV).
For `CCN(CC)CCCC[C@H](NC(=O)[C@H](CC(C)C)NC(=O)[C@H](C)NC(=O)[C@H](Cc1ccccc1)NC(=O)c1ccc(C(C)(C)C)cc1)C(=O)N[C@@H](CO)C(=O)OC`, the specific binding was 120% (Neuropeptide Y receptor type 1 (NPY1R, Homo sapiens, UniProt P25929); radioligand binding; 10 µM).
